Measurements gathered from unrelated publications.
A part holds a random share of what one study measured.

Set 1 — technique: RNA Bind-n-Seq; form: RNA; medium: in vitro; concentration: 200 nM; notes: whole 134-nt RNA, ends assumed; with: 150 mM LiCl; reference: input library; reading: higher = stronger binding; measurement: log2 enrichment; library: 7-deaza-guanosine replaces G
Target: Fragile X messenger ribonucleoprotein 1, C-terminal low-complexity region (Fmr1, Mus musculus, UniProt P35922)
Shared flanks, not repeated: GGGAGUUCUACAGUCCGACGAUC … UGGAAUUCUCGGGUGUCAAGG
AGUCCUGUGCUACACAUCGUAUGUACCGAAUCGGGGAAAAAGGAAAAAGGAAAAAGGGAAAGUAUUAUGUUACGCCGUUCGGAUCUGCAC: -0.758
CAAGUCCUGUGCUACACAUCGUAUGUACCGAAUCGGGAAAGGGUGGGAAAAAGGGAAAGUAUUAUGUUACGCCGUUCGGAUCUGCACUUC: -0.911
UAACUUUAGAGGAGGAUCUGAUGGAUAUGGCAGUGGACGUGGAUUUGGGGAUGGCUAUAAUGGGUAUGGAGGAGGACCUGGAGGUGGCUA: -0.0824
AAGUCCUGUGCUACACAUCGUAUGUACCGAAUCGGGGAAAGGGGAGGGGAAAGGGGAAAGUAUUAUGUUACGCCGUUCGGAUCUGCACUU: 0.842
UUCCUCAAGUCCUGUGCUACACAUCGUAUGUACCGAAUCGGUGGUGGGUGGAAAGUAUUAUGUUACGCCGUUCGGAUCUGCACUUCCAGC: 1.08
UAACUUUAGAGGAGGAUCUGAUGGAUAUGGCAGUGGACGUGGAUUUGGGGAUGGCUAUAAUGGGUAUGGAGGAGGACCUGGAGUUGGCAA: 0.657
CUCAAGUCCUGUGCUACACAUCGUAUGUACCGAAUCGGGCCGGGCCGGGCCGGGAAAGUAUUAUGUUACGCCGUUCGGAUCUGCACUUCC: 0.852
CAAGUCCUGUGCUACACAUCGUAUGUACCGAAUCGGGAAAGGGUUUUUGGGAGGGAAAGUAUUAUGUUACGCCGUUCGGAUCUGCACUUC: -0.672
ACCAUGCAGGUGGGAAUCUUUGGGAAGUGGGGCAAGGGGGGGAUAGGGAGGGGGGUAACACUUUGGGAACAGGUGGUCCCAGGUCGUUUC: 1.22
GUCCUGUGCUACACAUCGUAUGUACCGAAUCGGGGUUUGGGGAAAGGGGUUUUUGGGGAAAGUAUUAUGUUACGCCGUUCGGAUCUGCAC: -0.122
UGGGAGGUGGAUUUUGUUUAUUUUUUGAGCUCAUUUCCAGGGGUGGGAAUUUUUUUUUAAUAUGUGUCAUGAAUAAAGUUGUUUUUGAAA: 0.499

Set 2 — technique: RNA Bind-n-Seq; form: RNA; medium: in vitro; concentration: 365 nM; reference: no-protein control; reading: higher = stronger binding; measurement: RBNS enrichment (R)
Target: RNA binding protein fox-1 homolog 2, RRM domain, GST-SBP tag (RBFOX2, Homo sapiens, UniProt O43251-10, residues 100-194)
Notes: natural RNA segment, single round, ends assumed
Shared flanks, not repeated: GGGAGUUCUACAGUCCGACGAUC … UGGAAUUCUCGGGUGCCAA
UAUGACUCAGGAGCCUCCUAGGGCUUAUCAUCAGCCCUCACACCCGCUUCCCCCUCCAACCCACAGCCUUUGCUUCCAGGUGGCAGGAUUACUACUUUGCCUCUUCAGCA: 0.729
CACCCGGCCUCUUCGCCUUUCCCACCCUCCUGCCCCACACUCCCCGCCUUAGAGCCUCGUCCCUCCCUCACUGAAGGACCUGAGCUGGCCAGGCCCUGAGAGUCUGGUCU: 0.649
GAACCGGACUUGUGAAUCCUAGGCUGUGUCUCUGCUCUCCUUUCUCAGCCACUGGUACUCUGAGGCCCUUGAGGCUCUUUGUAAAGCUCUUUUAUAUCUAUUGACAAAGG: 0.828
CAAAAAAACCCACCAUUCUCAAAAAGAAAAACAAAAAGAAUGUAGCUUUUUAAGAACUACUUUAAUUGAAAGAUAAGAACUUUGCUAUCUUAUGCAGUGUAGUGUUCCCU: 0.513
UUUAAACCGGCCCCACAUGAAGAGAACAUCCCUUGAGACGAAUUUGGAGACUGGGAUUAGAGCCUUUGGAGGUCAAAGCAAAUUAAGAUUUUUAUUUAAGAAUAAAAGAG: 0.59
UAAUUAUUUUUCUCUAAAUGAACUGUACAUUUAUCUUAAAUAAAAAUUUAUUUUUGAGAUAACUGUUGCAAAGUCUACUUUUUCUAGAGACCUUCUUGGGGGAAACAUUG: 0.437
UAUAACUAGGAUUUCAUUUUGUGUGUAUAGCUUAUGUAAUAAAUUUUAAAGGUGAAAACUCUCUUAAUUUGUUUCUAUUUCUUAAGUAUUUUAAAACAUAGCAAAGAUAA: 0.778
CAUCGAAACCCUGGUUUCAGGAUGGAUCAAGUGCUGUUACAGCUCAUGUUCCUUAGACCUGAUUUGUUUUGAUAUUUUACUGCCUUUCCUUUUAAUUUUUGUUUGAAUGA: 1.51
GUUAGGAGUAUUUUUGUAUUUUGUCAGAUGUUUAGGAGACAGACUUUCGGGUCAUGUUUCUUGUCUUGUUCCCAGAUCUUUUCUUAAAAGAACAGUGUGACACCAGAAGC: 0.517
CAUGCCGACUUGAUCUUUGAGCCCACUCGUCUGCAUUUGUUCUUUGGGAUUAUAUAAUCUAGGGCCAAGAAGUUUACUGCCUGUGGAGCGGGCAGGAACUCUAGCCACCU: 0.754
UCUGUCUGGACAUGCUUCCUAAAAACAGACCAUUUUCCUUAACUUGCAUCAGUUUUGGUCUGCCUUAUGAGUUCUGUUUUGAACAAGUGUAACACACUGAUGGUUUUAAU: 1.02
CUUGGGCUACUGUAGAUUUGUAUCCUUGGUGAAUUUGGGGUUCCCAUCGGAUUGAACAUACACUGUAUAUUUUGCAAUAGUUACCUCAAGGCCUACUGACCAAAUUGUUG: 0.549

Set 3 — technique: protein-binding microarray; form: double-stranded DNA, one strand shown; medium: in vitro; concentration: 0.8 µM; notes: whole 60-bp probe, no competitor; reading: higher = stronger binding; measurement: fluorescence intensity; shared flanks, not repeated: … GTCTTGATTCGCTTGACGCTGCTG
Target: Centromere-binding protein 1, full length, N-terminal tag (CBF1, Saccharomyces cerevisiae, UniProt P17106, residues 1-351)
Sequence of UniProt P17106 (whole entry, looked up): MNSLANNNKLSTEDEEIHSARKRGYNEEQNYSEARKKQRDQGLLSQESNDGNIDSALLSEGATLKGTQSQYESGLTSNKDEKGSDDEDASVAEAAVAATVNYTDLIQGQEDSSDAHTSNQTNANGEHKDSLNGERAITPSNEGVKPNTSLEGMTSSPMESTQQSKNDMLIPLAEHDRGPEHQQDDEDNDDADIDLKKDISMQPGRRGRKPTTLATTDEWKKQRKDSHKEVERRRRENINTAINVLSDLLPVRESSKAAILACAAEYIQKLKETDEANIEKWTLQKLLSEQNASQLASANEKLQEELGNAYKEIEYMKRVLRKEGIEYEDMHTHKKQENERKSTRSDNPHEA
CTAGTAGTTACGGTGCACGCAGATGCAATGCTATTC: 569 a.u.
GAAAGAAAAGTACATGATGTGTAAATTAACAAGTAG: 530 a.u.
GAATAAAAATGCTATGTCACCTCGAAAGCAAGATAG: 578 a.u.
CCTAACTACTATATCCATCACGTATAGCTTCGTACA: 602 a.u.
GAACATAAATAAGGGCACGTACACTAAAAAAGCTAG: 647 a.u.
GAATTGTTAGGTAGTCATGTGATTTTTTGTCACTAG: 6580 a.u.
CTACATAGCGGGCCAAGCGTGGGTCACGTGCTGTTC: 24000 a.u.
GAACGATAGCTAAATCACGTTTAACGAAGATTTTAG: 919 a.u.
CTACATGGTGTCCATCACGGTCACATGGTGCAGTTC: 10000 a.u.
GAACAAGAGTTCTTCCACGTTTTGTTTATATCATAG: 618 a.u.
CTAGAAAAGTATTACATCAGCACGAGTAACAACTTC: 624 a.u.
GAAGACAAGCAACCACACCACATGAGCTCACAATAG: 604 a.u.
GAACTATTCCAACCAGAGCTGACGAGCTAAAAGTAG: 503 a.u.
GAACTATGAACTTATCACGAAGAACGGAGATGTTAG: 520 a.u.
GAAACAAATAGCCATCATGATTCTCTTTTAAGATAG: 531 a.u.
GAAAGTTAAGAAGATAACGTGGTGAATTTTACCTAG: 683 a.u.
CCTAACTACTATAATGCCGTGGCATAGCTTCGTACA: 509 a.u.
CTATTGCATCCCCCAGACACCACCTCTTTTGTTTTC: 521 a.u.
GAAAGACATGTGCGTCACGAAAAAAGAAATCAATAG: 772 a.u.

Set 4 — technique: protein-binding microarray; form: double-stranded DNA, one strand shown; medium: in vitro; concentration: 250 nM; notes: 60-bp whole probe; with: salmon DNA 0.4 mg/ml; reference: random background probes; reading: higher = stronger binding; measurement: log fluorescence; shared flanks, not repeated: GCCTAGCAC … GTCTTGATTCGCTTGACGCTGCTG
Target: Interferon regulatory factor 7, full length, phosphomimetic (IRF7, Homo sapiens, UniProt Q92985, residues 1-503, S101K/S471D/S472D/S475D/S476D/S477D/S483D/S484D/S487D)
Residues (chain): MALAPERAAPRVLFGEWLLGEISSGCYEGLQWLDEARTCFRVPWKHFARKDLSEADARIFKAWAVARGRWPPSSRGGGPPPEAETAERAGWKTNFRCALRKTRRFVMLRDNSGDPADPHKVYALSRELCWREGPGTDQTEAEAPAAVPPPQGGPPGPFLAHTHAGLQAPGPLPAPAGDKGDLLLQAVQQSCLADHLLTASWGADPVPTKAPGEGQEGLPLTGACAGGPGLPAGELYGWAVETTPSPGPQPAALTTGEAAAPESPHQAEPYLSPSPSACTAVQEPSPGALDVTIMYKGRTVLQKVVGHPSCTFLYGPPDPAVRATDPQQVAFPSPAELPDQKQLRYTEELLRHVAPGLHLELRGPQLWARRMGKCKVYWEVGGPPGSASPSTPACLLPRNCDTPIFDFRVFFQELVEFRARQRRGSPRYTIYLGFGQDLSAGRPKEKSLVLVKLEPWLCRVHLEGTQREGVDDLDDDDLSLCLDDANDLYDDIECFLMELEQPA
GACGATTTCACTCTCGAGACGTGCTAG: 0.32 z-score
TTAGATTTCGGGTATCGATAAGTGCTA: 1.37 z-score
GACGAATTGAGACTGGAGACGTGCTAG: -0.0151 z-score
TTAGGTCTCGGTATCAGTTAGTGCTAG: 2.11 z-score
GACGGTTTCCTACAGCTGACGTGCTAG: 1.02 z-score
GTAGATATCGGGTATCGATTAGTGCTA: 0.39 z-score
TCAGCTCTGGCACCTCTAACTGTGCTA: -0.713 z-score
GACGGACTGCTCCTCCTGACGTGCTAG: -0.661 z-score
GACGCTATCCTACTGCTGACGTGCTAG: 0.136 z-score
TTAGGTATCATACTGCTTTAGTGCTAG: 0.236 z-score
TTAGGACTGGGAGTGGGTTAGTGCTAG: -0.371 z-score
TTAGGCTTCGGACTGGGTTAGTGCTAG: -0.0598 z-score
TTAGGTTCCGGTCTCGGTTAGTGCTAG: 3.47 z-score
ATATATATGAATATATATTAGTGCTAG: 0.186 z-score
TCACTTTTGAGAGATGGAACTGTGCTA: 0.598 z-score
TTAGGTATCTGTTTCGGTTAGTGCTAG: 4.91 z-score
TCAACTCTGTGCTTTCCTACTGTGCTA: 0.0103 z-score
GACGGTTTCGGCTTTCGGGACGTGCTA: 7.68 z-score
GACGGTCTCGGTCTTGGGACGTGCTAG: 0.776 z-score
TTAGGTTTCGGTTCCGGGTAGTGCTAG: 12.4 z-score
GAGAGTAGCTTTCTGAGGGCGTGCTAG: -0.527 z-score
GACGATTTCGGGCCTGGAGACGTGCTA: -0.0825 z-score
TTATATTTCAGTTCCGATTAGTGCTAG: 1.82 z-score
GACGGTTTCCTATTGCTGACGTGCTAG: 4.31 z-score
TTAGGACTGGGCATCGGTTAGTGCTAG: -0.121 z-score
